Measurements collected from several papers.
A part holds a random share of what one study measured. Substitutions count along the parent as printed.

Study 1 — technique: RNA Bind-n-Seq; molecule type: RNA; sample: in vitro; tested at: 365 nM; baseline: no-protein control; reading: higher = stronger binding; measurement: RBNS enrichment (R)
Target: RNA binding protein fox-1 homolog 2, RRM domain, GST-SBP tag (RBFOX2, Homo sapiens, UniProt O43251-10, residues 100-194)
Setting: natural RNA segment, single round, ends assumed
Residues (chain): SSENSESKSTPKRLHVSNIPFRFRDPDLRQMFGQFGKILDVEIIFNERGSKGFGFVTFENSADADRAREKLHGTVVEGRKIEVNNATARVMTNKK
Sequence = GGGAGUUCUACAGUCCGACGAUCUGCAGAAUAAUUCAAUUGAAUAUCCAUCACUUAAAUACAGUGACAGGACAGCAACUUCAGGGAUCUGUAAAGAUCAUUUAAAUGGAGUGCUCAUCUCAUUGAGGAGCAGAUGGAAUUCUCGGGUGCCAA; value = 0.268
Sequence = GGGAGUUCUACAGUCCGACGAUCGAGUGUUUACACUGGUUGAUGCUUACACAGCCUGAACUCAGUGCCUCAAACUCCUCUGUGACCAGUUUUGUCUCCAAGCACAUAACUCAUUCUCUCUAAUCUGAUGUCUCUGGAAUUCUCGGGUGCCAA; value = 0.362
Sequence = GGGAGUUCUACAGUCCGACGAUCCUGUCCCCUCACCCCCUCUCCUGUAUUUCUCAGGUCCAGUUCAAAUCUAAAAUUCUACUUUUAGAGUUGAAACAGAGUAAUAACUUAUCUAACCCUCUUUUCCUACAAAGUGGAAUUCUCGGGUGCCAA; value = 0.582
Sequence = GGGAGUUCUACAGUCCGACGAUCUGGAGAAGCCCCCAGGAGGAGGGCAACUAAGUGUCAUUAUACCCAGUGUCUGGCUCCCUGAUAGGAGGGAGGUCCCAGGGUAGGAGCGGGCUGGCAGGCGCUGACUGCCUUGGAAUUCUCGGGUGCCAA; value = 0.734
Sequence = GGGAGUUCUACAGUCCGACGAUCGGCAGGACCUGUGGAGCCAUUAACGGCGGGGGUCUUAGCGAGAACCACUUCAUUAGAGCACUUGCUGCAGAGGCAGAGAGCAGAGCCGCCAGGAUAAAUUCUGCUUCCACUGGAAUUCUCGGGUGCCAA; value = 0.403
Sequence = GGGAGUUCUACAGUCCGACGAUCUAUCUGCUGGAGUUCUACGUUUUUAUGUAAGCAUGAAACACAGGCAGUGUGAGAGAAAGCCAGGACCCGACAUGCUGUCCGUUAACGCUACGUCUGCUGUAGUUCCAUUUUGGAAUUCUCGGGUGCCAA; value = 0.576
Sequence = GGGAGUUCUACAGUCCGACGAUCCCUUUCAGCAGUUAUGUAGCCUGUAUUCAAUGGUAGGAAAUUACAGGAAAAAAAGUUCUAAGCUUCUUAUGUGGUCCACAAGGAAUCCAUAUUUGAGAAACAUGAUUAGGUGGAAUUCUCGGGUGCCAA; value = 0.695
Sequence = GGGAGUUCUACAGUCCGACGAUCCAGUAGAGUGGACACCUCGGCCGUGGCCACUUUAGAGGGGGAAAAGUUUAAGUUUUAAACUAAAAGUUACAGAAUUGAAUGUGGAUACCGGCUUCAUUCACCCCCACUUGUGGAAUUCUCGGGUGCCAA; value = 0.321

Study 2 — technique: competition protein-binding microarray; molecule type: double-stranded DNA, one strand shown; sample: in vitro; tested at: 2 µM; with: Cbf1 competitor, 0.05 µM; reading: higher = stronger binding; measurement: fluorescence intensity
Target: Phosphate system positive regulatory protein PHO4, full length, GST-tagged (PHO4, Saccharomyces cerevisiae, UniProt P07270, residues 1-312)
Setting: whole 60-bp probe, lowest competitor level
Target sequence (chain): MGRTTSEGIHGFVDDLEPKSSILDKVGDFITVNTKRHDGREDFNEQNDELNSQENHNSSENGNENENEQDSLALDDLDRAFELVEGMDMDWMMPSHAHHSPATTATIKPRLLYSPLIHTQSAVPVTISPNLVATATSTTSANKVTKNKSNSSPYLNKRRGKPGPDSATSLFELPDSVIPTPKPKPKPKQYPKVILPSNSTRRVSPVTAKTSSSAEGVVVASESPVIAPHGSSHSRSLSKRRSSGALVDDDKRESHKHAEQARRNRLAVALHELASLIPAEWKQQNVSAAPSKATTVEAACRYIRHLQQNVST
Sequence = GGGCGCCGCGACGGTCACGTGCACAGCGGCAGGCCTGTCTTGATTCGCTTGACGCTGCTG; value = 13100 a.u.
Sequence = AACTATGAGTACAGGCATGTGATGTTACCTAAGGCCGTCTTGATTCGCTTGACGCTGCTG; value = 7550 a.u.
Sequence = AAAGCGGTAATTTGCCAGGTGGGTGCAGATATCTATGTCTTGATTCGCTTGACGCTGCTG; value = 5130 a.u.
Sequence = GTCTTGTCTCATTGCAGGGTGGGTGTCCCCACTTCAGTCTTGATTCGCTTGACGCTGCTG; value = 4340 a.u.
Sequence = CTAACGAAGGTTTGAAGCGTGGGTGACAAGCCAAGTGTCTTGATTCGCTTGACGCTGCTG; value = 7120 a.u.
Sequence = ATACCAGCACCAGACAACATGGCTCGGTAACCACCAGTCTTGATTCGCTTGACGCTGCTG; value = 5880 a.u.
Sequence = GAATAGAGGTGGTGAGTCGTGCGGAACGACGAACCTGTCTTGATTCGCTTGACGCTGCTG; value = 7190 a.u.
Sequence = CGGGGTTAAGTTTGTCACGGTACTTGCTTGCAGCAGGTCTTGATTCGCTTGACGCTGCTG; value = 5190 a.u.
Sequence = TGCGCAACAACTTGTCTGGTGGGTGTATGTCTAGAAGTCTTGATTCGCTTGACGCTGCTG; value = 4720 a.u.
Sequence = TTCGCCGATTCTAATCATGTGACGCCTTTTCCCCAGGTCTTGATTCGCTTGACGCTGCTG; value = 6550 a.u.
Sequence = TCGGTCTTCTTGATGCTCGTGAACGCCATTTGGTCCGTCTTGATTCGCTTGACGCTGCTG; value = 4800 a.u.

Study 3 — target: CCNB1, cyclin fold, Cln2 fusion (human); technique: yeast growth competition, sequencing; sample: yeast; setting: weak parent motif; baseline: not given; reading: higher = stronger binding; measurement: normalised enrichment score
Parent: WEE1 docking peptide (human); HKTFRKLRLFDTP
Change = WKTFRKLRLFDTP [H1W]; value = 1.21
Change = TKTFRKLRLFDTP [H1T]; value = 1.26
Change = HKTFKKLRLFDTP [R5K]; value = 0.0313
Change = HKTFRKLTLFDTP [R8T]; value = 0.707
Change = HKTFRKLRLDDTP [F10D]; value = -0.0306
Change = HKVFRKLRLFDTP [T3V]; value = 1.81
Change = HKTFRKYRLFDTP [L7Y]; value = 1.16
Change = HKTFRKLRLFMTP [D11M]; value = 1.25
Change = HKTFRKLRLFPTP [D11P]; value = 0.914
Change = HKTNRKLRLFDTP [F4N]; value = 0.797
Change = HKTLRKLRLFDTP [F4L]; value = 0.797
Change = HKRFRKLRLFDTP [T3R]; value = 0.627

Study 4 — technique: Sort-seq; measured: YFP reporter; sample: E. coli; setting: PhoQ-PhoP variant library; with: 10 µM Mg2+; baseline: high Mg2+ state; reading: higher = stronger signaling; measurement: fold induction
Substance: PhoQ, residues 284 288 289 292 302 303 QWGLFV
target = PhoP, residues 12 14 15 18 19 HHYTI (Escherichia coli, UniProt P23836); value = 8.66
target = PhoP, residues 12 14 15 18 19 SFCSL (Escherichia coli, UniProt P23836); value = 15.9
target = PhoP, residues 12 14 15 18 19 AYFRS (Escherichia coli, UniProt P23836); value = 3.16

Some of these lines once more (study 3):
Change = HKTFRKLRLDDTP [F10D]; value = -0.0306
Change = HKVFRKLRLFDTP [T3V]; value = 1.81
Change = HKTFRKYRLFDTP [L7Y]; value = 1.16
Change = HKTFRKLRLFMTP [D11M]; value = 1.25
